Measured values pooled from the literature.
Each line is one published result; not all experiments were run side by side. “And” joins repeats or separate records; there may be more than shown.

Cc1ncsc1-c1ccc(C(C)NC(=O)C2CC(O)CN2C(=O)C(NC(=O)CCCCCCCCCCN2CCCC(Nc3ncc(Cl)c(Nc4ccccc4S(=O)(=O)C(C)C)n3)C2)C(C)(C)C)cc1 (centres unmarked)  log2 fold change (22Rv1; RNA-seq, refers to: ZC2HC1C mRNA; concentration not given; relative to: DMSO): -2.06
C=CC(=O)N1[C@@H](c2ccc3c(c2)OCO3)c2[nH]c3ccccc3c2C[C@H]1C(=O)N1CCN(C)CC1  log2 fold change (CCNE1 WT-3xFLAG:CDK2 complex; co-IP TMT proteomics, refers to: ELP4; HEK-293T; 20 µM, 6 h; relative to: DMSO): 0
c1ccc(-c2n[nH]cc2-c2ccnc3ccccc23)nc1  log2 fold change (BUB1 (Candida albicans); kinase binding, MIB/MS competition; Candida albicans lysate; 10 µM; relative to: DMSO): -0.27
CNS(=O)(=O)Nc1nccc(Cc2c(C)c3ccc(Oc4ncccc4F)cc3oc2=O)c1F  IC50 (SW756; cell viability; 7 days): 39.8 nM
COC1CN([C@H]2CC[C@H]([C@@]3(C)Oc4c(Cl)cc(C(=O)NCc5c(SC)cc(C)[nH]c5=O)c(C)c4O3)CC2)C1  log2 fold change (RNA-seq, refers to: SMARCD3; human, whole blood; dose not given, 24 h; relative to: pretreatment baseline): 1.17
COc1ccccc1-c1ccncc1C(=O)Nc1nnc(OCc2ccc(Cl)cc2)s1  colony count (MDA-MB-436; 0.1875 µM): 16.5 and 17 and 17.5
Nc1ncc(-c2cc(-c3cnn(CC(F)(F)F)c3)ncc2F)nc1C(=O)NC1CNCC(F)C1 (centres unmarked)  remaining binding (PRKD1; KINOMEscan; 1 µM; relative to: DMSO control): 60%
C=CC(=O)Nc1cccc(Cn2ncc3cnc(Nc4cnn(CCOC)c4)nc32)c1  binding (human YES; KINOMEscan; 100 nM): 43%

Repeated from above:
COc1ccccc1-c1ccncc1C(=O)Nc1nnc(OCc2ccc(Cl)cc2)s1  colony count (MDA-MB-436; 0.1875 µM): 16.5 and 17 and 17.5
